Experimental data collected from several papers.
Protocols differ between the studies behind these lines. Several values in a cell are separate wells, animals, samples, runs or records.
Target: Serine/threonine-protein kinase Nek9 (NEK9, Homo sapiens, UniProt Q8TD19)
Residues used in one study (Q8TD19 1-979): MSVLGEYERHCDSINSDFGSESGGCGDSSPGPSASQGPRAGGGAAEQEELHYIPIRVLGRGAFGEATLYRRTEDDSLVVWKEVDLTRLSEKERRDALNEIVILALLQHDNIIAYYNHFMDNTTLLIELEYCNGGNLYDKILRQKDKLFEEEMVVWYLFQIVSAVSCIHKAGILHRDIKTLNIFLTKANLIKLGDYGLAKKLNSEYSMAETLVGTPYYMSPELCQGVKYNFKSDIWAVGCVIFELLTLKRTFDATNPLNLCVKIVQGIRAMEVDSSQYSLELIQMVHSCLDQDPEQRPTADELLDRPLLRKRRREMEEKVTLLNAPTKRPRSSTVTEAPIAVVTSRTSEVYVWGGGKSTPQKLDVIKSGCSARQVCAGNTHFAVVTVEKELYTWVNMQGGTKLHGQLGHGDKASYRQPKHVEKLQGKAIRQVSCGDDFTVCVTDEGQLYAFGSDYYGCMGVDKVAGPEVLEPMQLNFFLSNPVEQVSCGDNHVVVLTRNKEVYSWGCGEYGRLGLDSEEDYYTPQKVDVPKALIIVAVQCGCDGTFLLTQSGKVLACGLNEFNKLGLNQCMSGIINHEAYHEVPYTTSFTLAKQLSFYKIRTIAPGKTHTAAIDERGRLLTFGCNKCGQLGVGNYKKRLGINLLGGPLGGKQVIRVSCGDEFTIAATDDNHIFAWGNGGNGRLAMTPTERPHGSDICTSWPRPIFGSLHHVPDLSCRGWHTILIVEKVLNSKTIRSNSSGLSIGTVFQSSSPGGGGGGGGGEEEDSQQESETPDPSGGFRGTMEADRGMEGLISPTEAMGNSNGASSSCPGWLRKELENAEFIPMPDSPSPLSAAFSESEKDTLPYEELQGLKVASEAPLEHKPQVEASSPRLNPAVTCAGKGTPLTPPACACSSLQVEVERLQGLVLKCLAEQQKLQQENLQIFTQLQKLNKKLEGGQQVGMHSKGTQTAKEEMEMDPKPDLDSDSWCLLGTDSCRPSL

CN1CCN(Cc2ccc(-c3ccc(CO[C@H]4CCC[C@@H]4NC(=O)c4cc(-c5cnn(C)c5)cnc4N)cc3)cc2)CC1  inhibition (enzyme activity, inhibitor; 0.1 µM): 3%
CN1C[C@@H](c2c[nH]c3cc(Br)ccc23)NC[C@@H]1c1c[nH]c2cc(Br)ccc12  remaining activity (enzyme activity, inhibitor; 10 µM): 102%
CCn1cc(C(=O)O)c(=O)c2c(N)c(F)c(NC3CCCCC3)cc21  inhibition (kinase activity; 0.1 µM, together with: ATP at Km): -0.3%
Cc1cnc2nc1Nc1cccc(c1)COC/C=C/COCc1cc(ccc1OCCN1CCOCC1)N2  remaining binding (binding; 0.1 µM): 94%
Cc1ccc(-c2c(/C=C(\C#N)C(=O)NC(C)C)n(CCCO)c3ncnc(N)c23)cc1  remaining binding (cell-free assay, competition with immobilised ligand; 1 µM): 100%
CC(C)=CC1OC(C)(C)C2C=C3C(=O)C(Cl)=CC(O)C3C3C(O)C4OC4C(=O)C132 (centres unmarked)  remaining binding (cell-free assay, competition with immobilised ligand; 10 µM): 97%
Cc1cccc(O[C@H]2CCC[C@@H](C(C)CNCc3ccncc3)C2)c1 (relative stereo)  inhibition (enzyme activity, inhibitor; 10 µM): -7%
CNC1C[S+]2CC[S+]3CC[S+](C1)[Ru-4]321([N]=C=S)[n]2c3ccc(OC)cc3c3c4c(c5cc(F)c[n+]1c5c32)C(=O)NC4=O (centres unmarked)  remaining binding (KinomeScan; 0.1 µM; baseline: untreated): 87%
CN1CC[C@@H](COc2cnc(C#N)cc2-c2ccn3nc(NC(=O)C4CC4)cc3c2)C1  inhibition (enzyme activity, inhibitor; 1 µM): 5%
CCN1CCN(Cc2ccc(C(=O)Nc3ccc(C)c(NCc4cnc5[nH]ccc5c4OC)c3)cc2C(F)(F)F)CC1  remaining binding (binding, competition with immobilised ligand; 1 µM): 100%
Nc1ncc(-c2cc(-c3cnn(CC(F)(F)F)c3)ncc2F)nc1C(=O)NC1CNCC(F)C1 (centres unmarked)  remaining activity (enzyme activity; 1 µM; baseline: DMSO control): 106%
C=CC(=O)Nc1cccc(-c2cnc3[nH]cc(C(=O)NC(C)(C)C)c3n2)c1  inhibition (kinase activity; 0.1 µM): 28% and 27%
NC(=O)C[C@H]1CCc2sc3ncnc(O[C@H]4CC[C@H](N5CCOCC5)CC4)c3c21  inhibition (enzyme activity, inhibitor; 10 µM): 1%
COc1cc(Nc2nccc(-c3cnn4nc(OC)ccc34)n2)cc(C(F)(F)F)c1  remaining binding (binding, competition with immobilised ligand; 1 µM): 64%

Some of these lines once more:
CNC1C[S+]2CC[S+]3CC[S+](C1)[Ru-4]321([N]=C=S)[n]2c3ccc(OC)cc3c3c4c(c5cc(F)c[n+]1c5c32)C(=O)NC4=O (centres unmarked)  remaining binding (KinomeScan; 0.1 µM; baseline: untreated): 87%
